{"data": "Assay results of several laboratories", "mode": "agonist", "CNR1": "Cannabinoid receptor 1 (CNR1, Homo sapiens, UniProt P21554)", "CNR1 I267L/L193I/L359V": "Cannabinoid receptor 1 (CNR1, Homo sapiens, UniProt P21554, I267L/L193I/L359V)", "note": "Protocols differ between the studies behind these lines. ± marks the error that the study gave.", "sequence of UniProt P21554 (whole entry, unmodified, looked up)": "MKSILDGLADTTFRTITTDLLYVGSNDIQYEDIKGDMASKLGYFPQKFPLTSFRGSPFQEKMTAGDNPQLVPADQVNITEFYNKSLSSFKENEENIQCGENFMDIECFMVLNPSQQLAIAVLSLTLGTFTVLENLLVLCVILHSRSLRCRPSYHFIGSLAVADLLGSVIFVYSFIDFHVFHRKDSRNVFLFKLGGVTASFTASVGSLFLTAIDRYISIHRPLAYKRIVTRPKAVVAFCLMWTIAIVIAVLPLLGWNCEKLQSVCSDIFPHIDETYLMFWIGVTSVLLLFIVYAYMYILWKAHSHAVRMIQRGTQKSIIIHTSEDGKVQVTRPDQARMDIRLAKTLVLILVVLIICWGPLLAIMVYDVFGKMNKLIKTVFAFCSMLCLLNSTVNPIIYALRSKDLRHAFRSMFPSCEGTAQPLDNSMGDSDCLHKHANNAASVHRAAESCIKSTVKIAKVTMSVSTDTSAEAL"}
{"SMILES": "COc1ccc(C(C[N+](=O)[O-])c2c(-c3ccccc3)[nH]c3ccccc23)cc1OC (stereo not shown)", "target": "CNR1", "read-out": "G protein activation", "method": "BRET", "EC50 [nM]": 3300}
{"SMILES": "CCCCCn1cc(C(=O)c2ccc3ccccc3c2)c2ccccc21", "target": "CNR1", "read-out": "cAMP", "EC50 [nM]": 43.7}
{"SMILES": "CCCCCn1ccc(C(=O)NC(C)(C)c2ccc(C(N)=O)cc2)n1", "target": "CNR1", "read-out": "calcium signal", "EC50 [nM]": "> 10000"}
{"SMILES": "Cc1ccc2c(C(C[N+](=O)[O-])c3cccs3)c(-c3ccccc3)[nH]c2c1 (stereo not shown)", "target": "CNR1 (Homo sapiens, UniProt P21554, I245F)", "read-out": "G protein activation", "method": "BRET", "EC50 [nM]": 120}
{"SMILES": "CCOC(=O)C(CC)(CC)NC(=O)c1ccc(C2CC2)c(Cc2ccc(F)cc2)n1", "target": "CNR1", "read-out": "cAMP", "EC50 [nM]": 4.4}
{"SMILES": "COC(=O)[C@@H](NC(=O)c1nn(Cc2ccc(F)cc2)c2cc(OCCCCNC(N)=O)ccc12)C(C)(C)C", "target": "CNR1", "read-out": "β-arrestin recruitment", "EC50 [nM]": 4.2}
{"SMILES": "CCCCCn1ccc(C(=O)NC(C)(C)c2ccccc2Cl)n1", "target": "CNR1", "read-out": "calcium signal", "EC50 [nM]": 23.2}
{"SMILES": "CCCCCn1cc(C(=O)c2ccc3c(c2)CC(C)(C)C3)c2ccccc21", "target": "CNR1 I267L/L193I/L359V", "read-out": "cAMP inhibition", "method": "CAMYEL BRET biosensor", "with": "forskolin 10 µM", "EC50 [nM]": 100}
{"SMILES": "CC(C)[C@H](NC(=O)c1ccn(Cc2ccc(F)cc2)n1)C(N)=O", "target": "CNR1", "read-out": "calcium signal", "EC50 [nM]": 4350}
{"SMILES": "CCCCCn1cc(C(=O)c2cccc3c2CC(C)(C)C3)c2ccccc21", "target": "CNR1 (Homo sapiens, UniProt P21554, F170A)", "read-out": "cAMP", "method": "BRET", "EC50 [nM]": 219}
{"SMILES": "CC(=O)Nc1ccc(C(C)(C)NC(=O)c2ccn(Cc3ccc(F)cc3)n2)c(Cl)c1", "target": "CNR1", "read-out": "calcium signal", "EC50 [nM]": 481}
{"SMILES": "CCCCCn1cc(C(=O)c2cccc3ccccc23)c2ccccc21", "target": "CNR1 I267L/L193I/L359V", "read-out": "cAMP inhibition", "method": "CAMYEL BRET biosensor", "with": "forskolin 10 µM", "EC50 [nM]": 0.479}
{"SMILES": "O=[N+]([O-])CC(c1ccco1)c1c(-c2ccccc2)[nH]c2ccccc12 (stereo not shown)", "target": "Cannabinoid receptor 1, with GoB (CNR1, Homo sapiens, UniProt P21554)", "read-out": "GoB dissociation", "method": "BRET", "cell line": "HEK293", "EC50 [nM]": "2260 ± 40"}
